Measured values of several laboratories.
Lines come from different studies, so protocols differ. Numbers after ± are the reported error.
T1: STAG2/RAD21 STAG2 80-1060, RAD21 281-420 (Homo sapiens); chain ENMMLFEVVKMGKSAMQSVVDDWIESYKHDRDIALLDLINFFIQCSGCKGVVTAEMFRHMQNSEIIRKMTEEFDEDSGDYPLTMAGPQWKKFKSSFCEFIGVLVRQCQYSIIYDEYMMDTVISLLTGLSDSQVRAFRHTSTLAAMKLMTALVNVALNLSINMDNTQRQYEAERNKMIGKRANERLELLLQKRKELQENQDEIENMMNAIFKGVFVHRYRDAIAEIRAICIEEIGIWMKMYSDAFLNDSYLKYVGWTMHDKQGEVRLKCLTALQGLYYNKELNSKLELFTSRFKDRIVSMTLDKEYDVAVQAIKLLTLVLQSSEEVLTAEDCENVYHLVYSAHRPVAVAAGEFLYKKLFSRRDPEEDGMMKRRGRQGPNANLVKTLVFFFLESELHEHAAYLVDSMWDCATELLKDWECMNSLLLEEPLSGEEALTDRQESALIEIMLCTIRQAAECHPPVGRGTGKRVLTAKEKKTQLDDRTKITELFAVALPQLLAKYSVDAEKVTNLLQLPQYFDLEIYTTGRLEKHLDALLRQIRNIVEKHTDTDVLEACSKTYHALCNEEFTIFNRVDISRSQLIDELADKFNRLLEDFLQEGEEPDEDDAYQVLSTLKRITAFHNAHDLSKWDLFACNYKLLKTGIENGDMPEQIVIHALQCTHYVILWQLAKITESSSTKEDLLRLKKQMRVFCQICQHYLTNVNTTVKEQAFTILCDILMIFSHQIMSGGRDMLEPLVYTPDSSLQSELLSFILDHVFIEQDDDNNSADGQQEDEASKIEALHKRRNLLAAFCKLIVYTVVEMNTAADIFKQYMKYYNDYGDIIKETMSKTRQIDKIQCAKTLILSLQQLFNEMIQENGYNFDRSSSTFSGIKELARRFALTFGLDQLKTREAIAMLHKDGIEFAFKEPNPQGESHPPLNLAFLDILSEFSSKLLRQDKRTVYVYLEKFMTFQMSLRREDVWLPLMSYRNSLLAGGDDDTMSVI; chain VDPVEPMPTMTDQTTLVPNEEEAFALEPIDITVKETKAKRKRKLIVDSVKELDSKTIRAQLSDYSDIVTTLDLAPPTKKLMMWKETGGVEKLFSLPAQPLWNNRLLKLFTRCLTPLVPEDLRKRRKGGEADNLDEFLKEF
B1: Fmnl3 555-954 R570A (Mus musculus, UniProt Q6ZPF4); chain GLSAIRIKKPIKTKFALPVFNWTALKPNQINGTVFSELDDEKILEDLDLDRFEELFKTKAQGPALDLICSKNKTAQKAASKVTLLEANRAKNLAITLRKAGRSAEEICRAIHTFDLQTLPVDFVECLMRFLPTEAEVKLLRQYERERQPLEELAAEDRFMLLFSKVERLTQRMAGMAFLGNFQDNLQMLTPQLNAIIAASASVKSSQKLKQMLEIILALGNYMNSSKRGAVYGFKLQSLDLLLDTKSTDRKMTLLHFIALTVKEKYPELANFWQELHFVEKAAAVSLENVLLDVKELGRGMELIRRECSIHDNSVLRNFLSTNEGKLDKLQRDAKTAEEAYNAVVRYFGESPKTTPPSVFFPVFVRFIRSYKEAEQENEARKKQEEVMREKQLAQEAKKL
B2: HNRNPH1 192-280 (Homo sapiens, UniProt P31943); chain RTHYDPPRKLMAMQRPGPYDRPGAGRGYNSIGRGAGFERMRRGAYGGGYGGYDDYNGYNDGYGFGSDRFGRDLNYCFSGMSDHRYGDGG
B3: Fmnl3 555-954 N646A (Mus musculus, UniProt Q6ZPF4); chain GLSAIRIKKPIKTKFRLPVFNWTALKPNQINGTVFSELDDEKILEDLDLDRFEELFKTKAQGPALDLICSKNKTAQKAASKVTLLEANRAKALAITLRKAGRSAEEICRAIHTFDLQTLPVDFVECLMRFLPTEAEVKLLRQYERERQPLEELAAEDRFMLLFSKVERLTQRMAGMAFLGNFQDNLQMLTPQLNAIIAASASVKSSQKLKQMLEIILALGNYMNSSKRGAVYGFKLQSLDLLLDTKSTDRKMTLLHFIALTVKEKYPELANFWQELHFVEKAAAVSLENVLLDVKELGRGMELIRRECSIHDNSVLRNFLSTNEGKLDKLQRDAKTAEEAYNAVVRYFGESPKTTPPSVFFPVFVRFIRSYKEAEQENEARKKQEEVMREKQLAQEAKKL
B4: Fmnl3 555-954 Q746A (Mus musculus, UniProt Q6ZPF4); chain GLSAIRIKKPIKTKFRLPVFNWTALKPNQINGTVFSELDDEKILEDLDLDRFEELFKTKAQGPALDLICSKNKTAQKAASKVTLLEANRAKNLAITLRKAGRSAEEICRAIHTFDLQTLPVDFVECLMRFLPTEAEVKLLRQYERERQPLEELAAEDRFMLLFSKVERLTQRMAGMAFLGNFQDNLQMLTPALNAIIAASASVKSSQKLKQMLEIILALGNYMNSSKRGAVYGFKLQSLDLLLDTKSTDRKMTLLHFIALTVKEKYPELANFWQELHFVEKAAAVSLENVLLDVKELGRGMELIRRECSIHDNSVLRNFLSTNEGKLDKLQRDAKTAEEAYNAVVRYFGESPKTTPPSVFFPVFVRFIRSYKEAEQENEARKKQEEVMREKQLAQEAKKL
B5: rof 1-84 (Escherichia coli, UniProt P0AFW8); chain MNDTYQPINCDDYDNLELACQHHLMLTLELKDGEKLQAKASDLVSRKNVEYLVVEAAGETRELRLDKITSFSHPEIGTVVVSES
B6: FBN1 179-489 (Homo sapiens, UniProt P35555); chain RDYRTGPCFTVISNQMCQGQLSGIVCTKTLCCATVGRAWGHPCEMCPAQPHPCRRGFIPNIRTGACQDVDECQAIPGLCQGGNCINTVGSFECKCPAGHKLNEVSQKCEDIDECSTIPGICEGGECTNTVSSYFCKCPPGFYTSPDGTRCIDVRPGYCYTALTNGRCSNQLPQSITKMQCCCDAGRCWSPGVTVAPEMCPIRATEDFNKLCSVPMVIPGRPEYPPPPLGPIPPVLPVPPGFPPGPQIPVPRPPVEYLYPSREPPRVLPVNVTDYCQLVRYLCQNGRCIPTPGSYRCECNKGFQLDLRGECI
Chain of UniProt P0AG30 (whole entry, looked up): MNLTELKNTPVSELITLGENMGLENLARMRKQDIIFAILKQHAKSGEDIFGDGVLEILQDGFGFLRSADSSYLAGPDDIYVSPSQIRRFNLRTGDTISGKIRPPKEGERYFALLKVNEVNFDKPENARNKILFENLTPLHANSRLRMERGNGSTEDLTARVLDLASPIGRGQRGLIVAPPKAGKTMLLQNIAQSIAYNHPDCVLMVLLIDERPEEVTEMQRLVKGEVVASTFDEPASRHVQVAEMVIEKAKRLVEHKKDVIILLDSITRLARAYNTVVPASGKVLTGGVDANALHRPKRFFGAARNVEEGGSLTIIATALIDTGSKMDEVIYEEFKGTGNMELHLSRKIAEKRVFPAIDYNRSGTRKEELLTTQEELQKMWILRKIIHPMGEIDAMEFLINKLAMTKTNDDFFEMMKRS
Chain of UniProt P03696 (whole entry, looked up): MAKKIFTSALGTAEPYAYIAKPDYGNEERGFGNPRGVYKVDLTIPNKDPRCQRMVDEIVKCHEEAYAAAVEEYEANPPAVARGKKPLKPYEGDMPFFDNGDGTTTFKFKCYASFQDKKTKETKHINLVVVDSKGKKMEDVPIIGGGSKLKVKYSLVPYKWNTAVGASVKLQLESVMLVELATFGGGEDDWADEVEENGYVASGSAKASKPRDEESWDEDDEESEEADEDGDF
Chain of UniProt Q9UBX5 (whole entry, looked up): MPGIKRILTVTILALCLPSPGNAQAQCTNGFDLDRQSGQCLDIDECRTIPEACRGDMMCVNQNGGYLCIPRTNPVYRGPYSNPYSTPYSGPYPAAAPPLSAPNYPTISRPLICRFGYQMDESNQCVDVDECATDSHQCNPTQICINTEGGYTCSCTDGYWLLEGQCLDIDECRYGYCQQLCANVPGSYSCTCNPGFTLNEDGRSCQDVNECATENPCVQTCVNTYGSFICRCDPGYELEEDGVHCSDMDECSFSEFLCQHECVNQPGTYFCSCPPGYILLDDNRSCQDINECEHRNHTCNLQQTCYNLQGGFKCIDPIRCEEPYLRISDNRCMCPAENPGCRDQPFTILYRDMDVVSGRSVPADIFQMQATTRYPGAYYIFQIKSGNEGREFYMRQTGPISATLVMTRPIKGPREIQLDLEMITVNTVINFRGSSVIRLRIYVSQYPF
Chain of UniProt Q12280 (whole entry, looked up): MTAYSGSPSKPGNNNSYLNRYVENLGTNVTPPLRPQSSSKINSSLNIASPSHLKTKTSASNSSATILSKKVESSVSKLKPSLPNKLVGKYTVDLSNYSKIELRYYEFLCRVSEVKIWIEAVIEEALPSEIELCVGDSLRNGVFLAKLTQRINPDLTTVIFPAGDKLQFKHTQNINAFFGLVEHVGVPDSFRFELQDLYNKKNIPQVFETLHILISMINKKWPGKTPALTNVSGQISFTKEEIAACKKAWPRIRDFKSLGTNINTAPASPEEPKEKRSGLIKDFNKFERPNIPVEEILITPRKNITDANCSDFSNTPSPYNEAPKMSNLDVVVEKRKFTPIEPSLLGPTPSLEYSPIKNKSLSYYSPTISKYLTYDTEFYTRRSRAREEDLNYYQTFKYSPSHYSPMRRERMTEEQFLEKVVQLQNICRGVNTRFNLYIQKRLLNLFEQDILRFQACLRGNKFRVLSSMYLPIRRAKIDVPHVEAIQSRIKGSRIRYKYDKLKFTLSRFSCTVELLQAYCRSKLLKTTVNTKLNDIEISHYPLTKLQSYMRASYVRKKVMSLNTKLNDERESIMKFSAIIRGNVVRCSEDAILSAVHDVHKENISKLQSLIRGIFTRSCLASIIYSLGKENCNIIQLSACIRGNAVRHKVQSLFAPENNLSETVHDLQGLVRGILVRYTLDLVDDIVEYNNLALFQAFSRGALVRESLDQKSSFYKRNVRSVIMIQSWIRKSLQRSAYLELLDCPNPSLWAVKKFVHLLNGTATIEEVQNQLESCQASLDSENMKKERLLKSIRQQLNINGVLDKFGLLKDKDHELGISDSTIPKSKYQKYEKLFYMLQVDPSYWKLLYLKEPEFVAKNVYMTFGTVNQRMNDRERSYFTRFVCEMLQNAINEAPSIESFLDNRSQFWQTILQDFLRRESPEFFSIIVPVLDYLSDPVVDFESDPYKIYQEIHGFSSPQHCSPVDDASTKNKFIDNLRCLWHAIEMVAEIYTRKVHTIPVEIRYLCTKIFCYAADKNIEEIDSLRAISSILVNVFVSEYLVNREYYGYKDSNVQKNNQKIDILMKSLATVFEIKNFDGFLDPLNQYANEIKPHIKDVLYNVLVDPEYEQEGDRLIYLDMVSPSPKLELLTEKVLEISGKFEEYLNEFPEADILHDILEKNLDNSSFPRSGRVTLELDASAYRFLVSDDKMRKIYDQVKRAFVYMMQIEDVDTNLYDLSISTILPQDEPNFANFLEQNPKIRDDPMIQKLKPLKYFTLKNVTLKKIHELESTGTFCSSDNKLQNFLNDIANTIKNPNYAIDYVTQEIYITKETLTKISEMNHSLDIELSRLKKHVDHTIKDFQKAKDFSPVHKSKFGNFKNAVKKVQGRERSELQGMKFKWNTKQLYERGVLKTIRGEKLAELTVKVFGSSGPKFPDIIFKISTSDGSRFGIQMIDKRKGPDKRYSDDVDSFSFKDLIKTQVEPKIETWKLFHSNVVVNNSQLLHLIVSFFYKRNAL

Molecule	partner	test	test system	setting	scale	quantity	value
B1 (Fmnl3 555-954 R570A)	ACTA1, TMR label (Oryctolagus cuniculus, UniProt P68135)	AUC	–	KCl 50 mM	–	fraction bound	0.98 fraction
B2 (HNRNPH1 192-280)	HNRNPA2B1 181-341 (Homo sapiens, UniProt P22626-2)	trapping in hydrogel, hydrogel binding	–	pH 7.5, 4 °C, NaCl 200 mM	–	binding	binds
BUD4 fragment (Saccharomyces cerevisiae)	IQG1 1-823 (Saccharomyces cerevisiae, UniProt Q12280)	two-hybrid	–	–	higher = stronger interaction	beta-galactosidase activity	502.93 ± 0.5 Miller units
YES1 (Homo sapiens, UniProt P07947)	CD46 mature (Homo sapiens)	co-IP	infected cells	5 min	baseline: uninfected cells, higher = more c-Yes co-precipitated	relative co-precipitation	4 fold
Importin-β/IBB-mEGFP IBB (Saccharomyces cerevisiae)	NSP1 fragment (Saccharomyces cerevisiae)	ellipsometry	–	apparent, two-component fit	–	koff	> 0.1 s⁻¹
B3 (Fmnl3 555-954 N646A)	ACTA1, pyrene label (Oryctolagus cuniculus, UniProt P68135)	elongation termination	–	formin 100 nM, added: capping protein 20 nM	–	capping protein protection time	208 s
T7 DNA polymerase (bacteriophage T7)	gp2.5 (bacteriophage T7, UniProt P03696)	Vmax versus tension, optical tweezers	–	100 nM, model fit	–	probability of functional interaction	1
N-formyl-Met-Leu-Phe, N-formyl	FPR1 (Homo sapiens, UniProt P21462)	aequorin luminescence, agonist	CHO-K1	–	–	pEC50	9.39 pEC50
C3b/Bb C3bBb complex (Homo sapiens)	scn fragment (Staphylococcus aureus)	native gel	–	20 °C, added: SCIN 1 µM	–	half-life	< 4 h
B4 (Fmnl3 555-954 Q746A)	ACTA1, pyrene label (Oryctolagus cuniculus, UniProt P68135)	elongation termination	–	formin 100 nM, added: capping protein 20 nM	–	capping protein protection time	350 s
B5 (rof 1-84)	rho 1-419 (Escherichia coli, UniProt P0AG30)	rho termination, inhibitor	–	–	lower = more inhibition	terminated transcripts	16%
DVKLEFFGFEDHETGGDEGGSGSSNYKIKYFGFDDLSESED (WAPL 423-463 (Homo sapiens, UniProt Q7Z5K2))	T1, STAG2/RAD21 STAG2 80-1060, RAD21 281-420 (Homo sapiens)	ITC	peptide	pH 7.7, 25 °C, NaCl 150 mM	–	ΔH	-6.66 kcal/mol
B6 (FBN1 179-489)	FBLN5 42-448 (Homo sapiens, UniProt Q9UBX5)	ELISA	–	–	–	binding	binds
rpoS (Escherichia coli, UniProt P13445)	rpoB/rpoC core RNA polymerase (Escherichia coli)	pausing efficiency	–	σ added in trans, adhE TEC	–	apparent Kd	490 nM
GMI (Ganoderma microsporum)	ACE2 (Homo sapiens, UniProt Q9BYF1)	cell-cell fusion inhibition, inhibitor, split luciferase	HEK293T	–	–	IC50	75 nM

Some of these lines once more:
Molecule	partner	test	test system	setting	scale	quantity	value
B4 (Fmnl3 555-954 Q746A)	ACTA1, pyrene label (Oryctolagus cuniculus, UniProt P68135)	elongation termination	–	formin 100 nM, added: capping protein 20 nM	–	capping protein protection time	350 s
B5 (rof 1-84)	rho 1-419 (Escherichia coli, UniProt P0AG30)	rho termination, inhibitor	–	–	lower = more inhibition	terminated transcripts	16%
